Measured values pooled from the literature.
A part holds a random share of what one study measured.

Block 1 — method: protein-binding microarray; form: double-stranded DNA, one strand shown; matrix: in vitro; concentration: 250 nM; setting: 60-bp whole probe; added: salmon DNA 0.4 mg/ml; relative to: random background probes; reading: higher = stronger binding; quantity: log fluorescence; shared flanks, not repeated: GCCTAGCAC … GTCTTGATTCGCTTGACGCTGCTG
Target: Interferon regulatory factor 7, full length, phosphomimetic (IRF7, Homo sapiens, UniProt Q92985, residues 1-503, S101K/S471D/S472D/S475D/S476D/S477D/S483D/S484D/S487D)
Construct (chain): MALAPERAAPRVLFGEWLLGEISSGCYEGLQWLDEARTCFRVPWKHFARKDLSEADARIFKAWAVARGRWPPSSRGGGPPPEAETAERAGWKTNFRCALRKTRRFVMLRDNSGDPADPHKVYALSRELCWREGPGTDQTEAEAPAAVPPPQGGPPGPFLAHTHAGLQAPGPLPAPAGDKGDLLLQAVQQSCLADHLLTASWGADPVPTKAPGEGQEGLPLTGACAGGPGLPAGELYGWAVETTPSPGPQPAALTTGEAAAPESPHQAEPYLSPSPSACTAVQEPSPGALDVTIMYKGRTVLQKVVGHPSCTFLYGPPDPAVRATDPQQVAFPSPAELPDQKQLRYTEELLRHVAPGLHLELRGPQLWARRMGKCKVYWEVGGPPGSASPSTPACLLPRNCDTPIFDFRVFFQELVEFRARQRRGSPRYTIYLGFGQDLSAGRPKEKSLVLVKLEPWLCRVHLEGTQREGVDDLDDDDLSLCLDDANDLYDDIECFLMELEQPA
CTAGATCTCAGACTGGATTAGTGCTAG: 0.509 z-score
GACGGTCTGGGACTGGGGACGTGCTAG: -0.49 z-score
TGTAGAGTAGCTTTCTGAGGGTGCTAG: -0.921 z-score
TTAGGTTTCGGACTGGTTTAGTGCTAG: 4.44 z-score
TCAAGAGTAGTTTTTCAAACTGTGCTA: -0.521 z-score
TTAGGTCTCCTTCTCATTTAGTGCTAG: 0.744 z-score
TTAGACTCCAGTTTCGATTAGTGCTAG: 9.09 z-score
CCTACCGCCCTTACCGCCGCGTGCTAG: 0.253 z-score
TTAGATTTCGGGTATAGATTAGTGCTA: 0.539 z-score
TTAGGACTGGGTTTCGGTTAGTGCTAG: 7 z-score
TTAGGACTGGACACGGGGTTAGTGCTA: -0.263 z-score
GACGGTTCCGGGTTCGGGACGTGCTAG: 2.61 z-score
GGATGAGCAAGGGGGCCTCGGTGCTAG: 0.376 z-score
TTAGGTTTCGGGACTGGGCTAGTGCTA: 3.24 z-score
TGACGGCTCACTCCGTTGGAGTGCTAG: -0.737 z-score
GACTGTATCGGTATCGGGACGTGCTAG: 0.559 z-score
TTAGATTCCAGTTTCGATCAGTGCTAG: 6.37 z-score
TTACGACTGGGTTTCGGTTAGTGCTAG: 6.73 z-score

Block 2 — method: protein binding microarray; form: double-stranded DNA, one strand shown; matrix: in vitro; concentration: not given; relative to: not given; reading: higher = stronger binding; quantity: E-score
Target: Histone acetyltransferase KAT6A, both winged helices, GST fusion (KAT6A, Homo sapiens, UniProt Q92794, residues 1-181)
Setting: 8-mer, flanks averaged, mean of 2 arrays, mostly near background
Construct (chain): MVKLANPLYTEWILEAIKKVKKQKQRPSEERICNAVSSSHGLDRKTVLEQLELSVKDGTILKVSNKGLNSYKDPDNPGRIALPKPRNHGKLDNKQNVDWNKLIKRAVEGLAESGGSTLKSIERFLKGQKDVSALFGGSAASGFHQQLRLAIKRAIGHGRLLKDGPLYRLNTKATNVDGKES
CCTCTACG: -0.0448
ACGTATCT: -0.0152
CAGGCGGA: 0.144
CCGTCAAA: 0.248
ATCCAGCC: -0.144
GCCATCGC: 0.205
ACTCAGTC: -0.183
ATTGAAAA: -0.0454
GGAAATCA: 0.0114
CATCATAC: -0.0425
CGCTTACC: 0.244
CCAATAAA: -0.00173
GACCTGAA: -0.0318
AACCGCCT: 0.127
AAGGGGAA: -0.195
AGCGCGGG: 0.341
GGTTTCTA: -0.0824
CTAACAAA: -0.0929

Block 3 — method: RNA Bind-n-Seq; form: RNA; matrix: in vitro; concentration: not given; relative to: input RNA pool; reading: higher = stronger binding; quantity: bound/input enrichment
Target: RING finger protein unkempt homolog, zinc fingers 1-6, GST-SBP tag (UNK, Homo sapiens, UniProt Q9C0B0, residues 30-357)
Setting: RNA with constant flanks, human and mouse sites, ends assumed
Construct (chain): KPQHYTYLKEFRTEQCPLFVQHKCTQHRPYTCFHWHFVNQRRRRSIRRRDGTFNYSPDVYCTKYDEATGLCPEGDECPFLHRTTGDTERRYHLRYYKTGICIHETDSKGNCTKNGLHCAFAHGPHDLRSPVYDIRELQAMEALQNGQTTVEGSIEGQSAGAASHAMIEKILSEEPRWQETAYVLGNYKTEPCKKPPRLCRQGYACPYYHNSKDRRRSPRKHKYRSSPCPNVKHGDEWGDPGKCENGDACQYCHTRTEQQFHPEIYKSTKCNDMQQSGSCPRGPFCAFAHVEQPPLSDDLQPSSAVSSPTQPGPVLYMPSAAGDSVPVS
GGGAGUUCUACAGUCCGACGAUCGGACAUCUCCAGUCAGAAAGUGGAGCUGUUCCAAAAAGAAAAGACCCCUUAACACACACUAGUAAUUCACUGCCUCGUUCAAAAACAGUUAUGAAAACUGGAUCUGCAGGCCUUUCAGGCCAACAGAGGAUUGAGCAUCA: 1.63 ratio
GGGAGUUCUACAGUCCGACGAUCAUUAUUCCAUCAUUUGUGUUGAUGGAUAUCCAGGCUUCUACAGUGGUCACCUAUGUGUAUCAGCUAAUUGGAGAUGAUGUGAAAGUAGAACGAAUCGAAUACAAAAAACCUUAAAGCCAGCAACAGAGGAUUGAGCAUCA: 0.248 ratio
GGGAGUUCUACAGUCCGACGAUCGCCACCAUGAAAACCUUCUGUGGUACCCCGGAGUACUUGGCGCCUGAGGUGCUAGAGGACAAUGACUAUGGGCGAGCAGUGGACUGGUGGGGGCUGGGUGUGGUCAUGUAUGAGAUGAUGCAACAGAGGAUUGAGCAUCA: 0.487 ratio
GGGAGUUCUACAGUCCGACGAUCUCUUCCCUUUUCGGGAUUCUGUCCCCUACUAGUGACCUCAUGCUGGCCAGUGUUCUGUGGGACAGAGGAGGAUCAAGUUUCUACACCCUGACGAGUUCAAACAUCAGCAAAUGGGAACUGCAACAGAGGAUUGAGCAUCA: 0.106 ratio
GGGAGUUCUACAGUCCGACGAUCAAAGGGAAAUCAGUCCGUGUUCAUGUACAGUUUUUUGAUGACAGCCCAACAAGGGGCUGGGUUAGCAAAAGGCUUUUAAAGCCAUAUACAGGUUCAAAAUCAAAGGAAGCCCAGAAGGGACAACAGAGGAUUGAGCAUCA: 0.321 ratio
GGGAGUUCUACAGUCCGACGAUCCUUCCAAAGGUCUGCUUAUACCCAGCAGUUUCUGCUGUAUAUGGCAACACAGAAGUGACUUUGGUUUACCUUGGAAAACCUUUGGACGGAUGACAGUGGCUUUCUUGUGAUGACAGACAGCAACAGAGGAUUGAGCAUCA: 0.188 ratio
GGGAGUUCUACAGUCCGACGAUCAUGGAUGUCACUGAGGAUGAAGAGGAAGAAAUCAAACUGGAGAUAAAUAUGCUAAAGAAAUACUCUCAUCACAGAAACAUUGCAACAUAUUAUGGUGCUUUCAUCAAAAAGAGCCCUCCACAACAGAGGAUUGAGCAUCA: 0.182 ratio
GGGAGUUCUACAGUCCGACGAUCAAGCAGAAGUUGAUGCUGAAAGAGAGCUCCGCUGGGGACAGUUACUAUGACUACAUUUGUAUCAUUGACUUUGAGGCUACUUGUGAAGAGGGGAACCCAGCUGAGUUCCUACAUGAAAUCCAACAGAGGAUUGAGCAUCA: 0.195 ratio
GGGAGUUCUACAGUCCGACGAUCGUUACAUAAGUCAGGAGCUUUCUCAGUUCUGAAAAAGGAGCAUGACUGUGUCUGCACAGAAAGAACCACUUCUAGGGAAAUUGACAGUGAGACAAAGCUGAAACCACUCUCUGUAGUGCGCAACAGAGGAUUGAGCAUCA: 0.393 ratio
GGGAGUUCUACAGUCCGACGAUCGGCCAGGCUUUUGAGCUGAUCUUGAAGCCACCAUCUCCCAUCUCAGAAGCUCCACGAACUCUAGCUUCUCCAAAGAAGAAAGACCUGUCUCUGGAGGAGAUUCAGAAAAAGCUGGAGGCUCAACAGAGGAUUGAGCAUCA: 0.0632 ratio
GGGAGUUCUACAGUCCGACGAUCUGUUUGAAAAUGUUUAUUUCUGUUUAUGGUGUAAUCAUUCUGAGGUGAGGCUUUUCUUAUUUCCUUUGCAUUUUGCUAGAGCUGUGCUGAGUUCAGCAUUUGCUUAUUUAACCACUACAUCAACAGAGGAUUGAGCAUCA: 0.322 ratio

Block 4 — method: RNA Bind-n-Seq; form: RNA; matrix: in vitro; concentration: 365 nM; relative to: no-protein control; reading: higher = stronger binding; quantity: RBNS enrichment (R)
Target: RNA binding protein fox-1 homolog 2, RRM domain, GST-SBP tag (RBFOX2, Homo sapiens, UniProt O43251-10, residues 100-194)
Setting: natural RNA segment, single round, ends assumed
Residues (chain): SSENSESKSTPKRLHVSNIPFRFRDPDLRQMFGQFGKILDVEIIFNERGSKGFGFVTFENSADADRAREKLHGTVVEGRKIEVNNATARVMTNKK
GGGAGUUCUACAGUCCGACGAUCGUUUUAUCUUUUAAUGAUAACUUAGGUGCCCUUGGUGGGCUUUCCAAACCUGGUUACUCAACGUUAGCAGUGAAGCGAGCCGGUGGUGACUGUGGCUGGAAUGUGGUGGGUGGAAUUCUCGGGUGCCAA: 0.817
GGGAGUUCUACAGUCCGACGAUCCUUUGGACAGUGUUACAGUGAACACUUAGCAUCCUGUUUUUGGUUGGUAGUUAAGCAAACUGACAUUACGGAAAGUGCCUUAGACACUACAGUACUAAGACAAUGUUGAAUGGAAUUCUCGGGUGCCAA: 0.316
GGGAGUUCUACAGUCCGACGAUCUUGAAUGAGACGGCACCCAGUAAUCUUUGGAAACAUCAGAAGCUGCUCUCCAUUGACCUGGACAAAGUAGUGUUACCCAACUUUCGAUCCAAUCGCCCUCAAGUGAGACCUGGAAUUCUCGGGUGCCAA: 0.448
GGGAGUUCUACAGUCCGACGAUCGCACCCCUCUGGUUCUCAGCAAACUCAGACAAGGCAGUGCCACCAGGCCUGUCAGCAAAGCACCUUCCUCUGCCCACAGCCAGUCAGAGAAAACGAUCCAAAGGAGGGCAUGGAAUUCUCGGGUGCCAA: 0.366
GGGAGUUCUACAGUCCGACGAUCACCUUCUGAAGUUCACAUCGUUGGCAUUUCCUUUUUAUGUUAUGCAUACUUUGGCUGAACAAACAUUUAUUGGGCACUUCAGCUCAUUAGCACCAGGCAUGUAUAGACACUGGAAUUCUCGGGUGCCAA: 0.542
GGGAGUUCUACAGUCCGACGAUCACUUUCAUGUACUAUGGAAAAGUACAAGUAGGUUUACAUUACUGAUUUCCAGAAGUAAGUAGUUUCCCCUUUCCUAGUCUUCUGUGUAUGUGAUGUUGUUAAUUUCUUUUUGGAAUUCUCGGGUGCCAA: 0.379
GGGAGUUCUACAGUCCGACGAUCAAAGUAAGGAGGGUGGCCAAAUGGUAAACUAUUGGUACUUGUUUUCUACCUCCUAAAAAUGUAGCUUAUUUUUAGGAUUUAAAUCACUAAGUAAAUAAGUAUCCUUGCCAUGGAAUUCUCGGGUGCCAA: 0.491
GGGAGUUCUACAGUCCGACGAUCCUUGUGCAGCUCUGGAUCUCUGAGCCUCCCCUGACUAACCUUGAGUAGGAACAUGCUGAUGGGACACCAACAAAGCACAGGGUGCUUUUAAAAUAAAGCCCUGGGCCAGAUGGAAUUCUCGGGUGCCAA: 0.339
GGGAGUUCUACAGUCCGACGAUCCGAUGGCCCCGCUGUGGUCCCCUCUCUGUCCCUCCAUCUGUAUGUGUUCUGUGUCCCUUGCAUGUGUGCGUGUUAGAGUGAGCGCGUAUGCAUCAACUCAUUGGGCUCUUUGGAAUUCUCGGGUGCCAA: 1.3
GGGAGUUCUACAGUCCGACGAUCACACCCCCUUCUUCCUGAGAAUUCUGGUGCCUCUAAAGCCCCUCCUUGCCACUCAGGGUUUUAGUGGGUGCUCCCACUGCUCAGUGUACCCAUGAGCUGUCGUCAUUCACUGGAAUUCUCGGGUGCCAA: 0.481
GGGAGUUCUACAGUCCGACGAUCUAGCCUGUCAGUGAUCUAUUGGACCAAACCUUCUGCACACUCGGCCAGUUCCCUCUCCAAUGUCCGGUGCCAUCUUUCCUGACCUUUGUUUCUUUCUGUUCAGGAACCAUUGGAAUUCUCGGGUGCCAA: 2.36
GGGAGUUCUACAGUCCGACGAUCCAUUCUUCCCCUUGUUGGAUUUCAUACAGGAGCCUGGAGUGAGUGCUACACUAAGAAAGAAAUAGAGUUUGACAUAAGUUGAGAUUUUAGUGUGAUCUGGAUGUGUGAUAUGGAAUUCUCGGGUGCCAA: 0.771

For quick reference, copied from above (block 2):
ATCCAGCC: -0.144
GCCATCGC: 0.205
ACTCAGTC: -0.183
ATTGAAAA: -0.0454
GGAAATCA: 0.0114
CATCATAC: -0.0425
CGCTTACC: 0.244
CCAATAAA: -0.00173
GACCTGAA: -0.0318
AACCGCCT: 0.127
